Measured values gathered from unrelated publications.
Every numbered part comes from another study and shows a few of its results, in no order.

Series 1
Target: Histone acetyltransferase KAT6A, winged helix 1, GST fusion (KAT6A, Homo sapiens, UniProt Q92794, residues 1-85)
Technique: protein binding microarray
Form: double-stranded DNA, one strand shown
Sample: in vitro
Tested at: not given
Setting: 8-mer, flanks averaged, mean of 2 arrays, mostly near background
Reference: not given
Reading: higher = stronger binding
Target sequence (chain): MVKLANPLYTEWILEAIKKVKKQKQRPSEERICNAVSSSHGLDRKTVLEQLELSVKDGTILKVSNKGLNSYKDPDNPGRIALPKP
| Oligonucleotide | E-score |
| --- | --- |
| TCCGCAAA | 0.145 |
| ACCAGTCT | -0.0487 |
| ATGGGTGC | -0.0973 |
| AATAAACA | -0.0632 |
| TCCCCCGA | 0.221 |
| CCTCTGGC | -0.138 |
| ATTTCGTC | -0.00971 |
| CATACACA | -0.125 |
| AGTTGTTA | -0.065 |
| AGAATTTC | -0.0838 |
| GGTCGCGA | 0.246 |
| CATACCGC | 0.329 |
| AGATTATG | -0.0129 |
| AAACGAAT | -0.143 |
| AGGACCTA | -0.0203 |
| AAGCCATA | -0.0854 |
| CACCAGAC | -0.185 |
| AAAAAGGA | -0.279 |
| GCCGCGAC | 0.361 |
| GTGTATGA | -0.0951 |
| GACTCGGC | 0.184 |
| ACAGTAAA | -0.111 |
| ATGCCTGA | -0.203 |
| CTAGCCGA | 0.112 |
| ATTTAACG | 0.096 |

Series 2
Target: Sal-like protein 4, full length isoform A (SALL4, Homo sapiens, UniProt Q9UJQ4, residues 1-1053)
Sequence of UniProt Q9UJQ4 (whole entry, looked up): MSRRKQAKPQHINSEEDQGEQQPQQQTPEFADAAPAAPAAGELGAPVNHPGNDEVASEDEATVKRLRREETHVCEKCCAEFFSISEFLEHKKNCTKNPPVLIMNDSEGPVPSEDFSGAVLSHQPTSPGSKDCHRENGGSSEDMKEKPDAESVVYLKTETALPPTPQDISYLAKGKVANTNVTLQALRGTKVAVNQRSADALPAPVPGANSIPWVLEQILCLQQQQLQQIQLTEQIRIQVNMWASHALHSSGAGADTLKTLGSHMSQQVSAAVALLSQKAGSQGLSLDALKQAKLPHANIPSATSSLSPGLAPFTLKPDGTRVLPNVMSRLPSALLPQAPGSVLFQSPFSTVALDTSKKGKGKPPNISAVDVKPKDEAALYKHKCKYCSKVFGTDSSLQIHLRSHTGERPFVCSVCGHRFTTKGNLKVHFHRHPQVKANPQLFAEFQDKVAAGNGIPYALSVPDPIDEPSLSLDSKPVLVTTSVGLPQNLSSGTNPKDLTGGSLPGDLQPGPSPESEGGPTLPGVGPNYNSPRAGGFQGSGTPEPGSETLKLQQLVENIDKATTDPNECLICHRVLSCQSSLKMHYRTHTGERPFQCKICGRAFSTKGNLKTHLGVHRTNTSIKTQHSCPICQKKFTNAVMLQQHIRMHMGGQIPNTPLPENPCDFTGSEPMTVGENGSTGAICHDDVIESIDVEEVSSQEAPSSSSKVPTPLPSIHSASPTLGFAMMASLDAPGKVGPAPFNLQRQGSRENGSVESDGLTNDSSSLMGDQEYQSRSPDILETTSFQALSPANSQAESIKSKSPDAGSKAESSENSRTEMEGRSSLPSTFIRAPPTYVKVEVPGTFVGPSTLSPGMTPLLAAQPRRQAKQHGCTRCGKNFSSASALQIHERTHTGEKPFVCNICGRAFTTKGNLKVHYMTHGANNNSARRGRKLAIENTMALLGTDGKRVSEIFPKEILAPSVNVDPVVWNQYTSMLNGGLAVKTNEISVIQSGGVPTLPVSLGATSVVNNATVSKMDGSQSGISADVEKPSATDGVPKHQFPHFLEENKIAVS
Technique: universal PBM
Form: double-stranded DNA, one strand shown
Sample: in vitro
Tested at: 600 nM
Setting: 8-mer, flanks averaged, mean of replicates
Reading: higher = stronger binding
| Oligonucleotide | E-score |
| --- | --- |
| ACAGTGTC | -0.163 |
| GATGGCCC | -0.325 |
| GGTAGCTA | -0.0244 |
| GGACGTTA | 0.0155 |
| ATCATGAA | 0.134 |
| ATGCTTGC | -0.101 |
| AAATAGGG | 0.0991 |
| GAAAGCGC | -0.227 |
| ACGCTGGG | -0.361 |
| ACCTGTTA | 0.0314 |
| CCCCGAAA | -0.0436 |
| GTTTAGGA | -0.0854 |
| GGTTCTAC | -0.0349 |
| ATAAGGCC | -0.086 |
| AACGTGAC | -0.0665 |
| GAACCACC | -0.199 |
| GCACCCGC | -0.131 |
| ACACAATC | 0.0625 |
| TCAGGGAA | -0.0163 |
| ATACGAGC | 0.176 |
| CGAACCAA | 0.0707 |
| AACGTGAA | 0.0565 |
| CCTGTCAC | -0.22 |
| AACTGTAA | 0.302 |
| GAGTGATA | 0.155 |

Series 3
Target: Transcription factor SOX-2, HMG box (SOX2, Homo sapiens, UniProt P48431, residues 19-118)
Sequence of UniProt P48431 (19-118, looked up): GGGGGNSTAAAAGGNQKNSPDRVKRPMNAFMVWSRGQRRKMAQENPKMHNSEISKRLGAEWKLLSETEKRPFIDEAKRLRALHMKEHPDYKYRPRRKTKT
Technique: protein-binding microarray
Form: double-stranded DNA, one strand shown
Sample: in vitro
Tested at: not given
Setting: k-mer, scored over probes, only values ≥0.25
Reading: higher = stronger binding
| Oligonucleotide | E-score |
| --- | --- |
| TTATGAA | 0.3 |
| ATAAACA | 0.308 |
| GATTCAA | 0.31 |
| AACAAAT | 0.367 |
| GACACAA | 0.301 |
| AATTGCA | 0.297 |
| ATTAAAT | 0.331 |
| AATACAT | 0.337 |
| AAATTAT | 0.385 |
| CAATAGC | 0.363 |
| AACGGCC | 0.332 |
| TACACAA | 0.251 |
| TATAATA | 0.39 |
| TAATAAA | 0.301 |
| ACAATCC | 0.277 |
| ATTGTGG | 0.353 |
| ATAATCA | 0.335 |
| GTAATAA | 0.333 |
| AAATGAA | 0.308 |
| ATTGACA | 0.343 |
| ACTATTA | 0.333 |
| ATATATG | 0.257 |
| ATAGATA | 0.288 |
| TATTACA | 0.26 |

Series 4
Target: RING finger protein unkempt homolog, zinc fingers 1-6, GST-SBP tag (UNK, Homo sapiens, UniProt Q9C0B0, residues 30-357)
Sequence of UniProt Q9C0B0 (30-357, looked up): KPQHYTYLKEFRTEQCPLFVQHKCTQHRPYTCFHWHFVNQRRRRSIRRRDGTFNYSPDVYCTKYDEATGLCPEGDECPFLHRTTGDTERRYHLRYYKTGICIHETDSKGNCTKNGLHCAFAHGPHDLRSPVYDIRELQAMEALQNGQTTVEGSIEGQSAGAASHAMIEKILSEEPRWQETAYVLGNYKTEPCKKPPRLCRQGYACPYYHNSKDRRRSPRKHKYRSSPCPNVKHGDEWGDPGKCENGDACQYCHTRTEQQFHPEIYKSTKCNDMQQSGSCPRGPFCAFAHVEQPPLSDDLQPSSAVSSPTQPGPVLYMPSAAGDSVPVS
Technique: RNA Bind-n-Seq
Form: RNA
Sample: in vitro
Tested at: not given
Setting: RNA with constant flanks, human and mouse sites, ends assumed
Reference: input RNA pool
Reading: higher = stronger binding
Constant ends, left off below: GGGAGUUCUACAGUCCGACGAUC … CAACAGAGGAUUGAGCAUCA
| Oligonucleotide | bound/input enrichment [ratio] |
| --- | --- |
| GAUGAAGUGGAGAAGUACAACCGAAAUGGAGUCAAUGCUCUGCAGCUGGAUCCAGCACUAAAUAGACUUUUCACAGCCGGUCGAGACUCUAUCAUAAGAAUAUGGAGUGUCAAUCAGCAC | 0.132 |
| UUUGCUGAACUGGAUAAAGUAAUGGGCCCUCUCAUCUUUAAUGCAAGCAUCAUGACAGAUCUAGUUCGUUAUACCCGGCAGGGACUGCACUGGCUUCGCCAGGAUGCCAAGUUGAUAUCU | 0.119 |
| GCAAAGUUUGUGAGUGGUGAGGAAAUUGUCUCUGCCUCAACAGACAGUCAGCUAAAACUGUGGAAUGUAGGGAAACCAUACUGCCUACGUUCCUUCAAGGGUCAUAUCAAUGAAAAAAAC | 0.175 |
| CAGCCGCUCAUGUACGUGAAAGUGCUCAUCCAGGUGGGAUAUGAGCCUCUUCCUCCAACAAUAGGACGAAAUAUUUUUGGGCGACAAGUAUGUCAGCUUCCUGGCCUCUUUUGCUAUGCU | 0.689 |
| UUACAGAUGCAUGGAAAACAAAGUCUCCAAGAAAACACUUCUGUCUUGAUGGUCUAUGGAAAUAGACCUUGAAAAUAAGGUGUCUACAAGGUGUUUUGUGGUUUCUGUAUUUCUUCUUUU | 0.0979 |
| GGUCUAAUAUAAAUGGGCCUGGGACACCCAGGCCACUUAAUCGACCAAAGGUUUCUUUGUCAGCCCCCAUGACAACAAAUGGGUUGCCUGAGAGCACAGACAGCAAAGAGGCAAAUUUGC | 0.144 |
| AAAAGAAACUGGUGUUACCAAGAGGACACCUCAGAAGUUAUUUACCCCUUCGCCAGAGAUUGUGAAAUAUACUCAUAAACUUGCUAUGGAGAGACUCUAUGCAGUUUUUACAGAUUACGA | 0.191 |
| UGAAGUGUUGAGUGGCAGUGUUCCCUAUGGCCCAUCCCCAAAACCUGUGCACCAAAGCUUUAUUUAUGUCCCCAGUGUUGUCCCAAAGGCCACCAUGGACACCAGAGCACACCGACUGGC | 0.1 |

Some of these lines once more (series 1):
| Oligonucleotide | E-score |
| --- | --- |
| CATACCGC | 0.329 |
| AGAATTTC | -0.0838 |
| CCTCTGGC | -0.138 |
| ATGGGTGC | -0.0973 |
| AATAAACA | -0.0632 |
| ATTTCGTC | -0.00971 |
| CTAGCCGA | 0.112 |
| AGTTGTTA | -0.065 |
| ACAGTAAA | -0.111 |
| GCCGCGAC | 0.361 |
| TCCCCCGA | 0.221 |
| AAGCCATA | -0.0854 |
| ATGCCTGA | -0.203 |
